Assay results of several laboratories.
Compare with care: the assays were run in different laboratories. ± marks the error that the study gave.
UniProt P50750, sequence (whole entry, looked up): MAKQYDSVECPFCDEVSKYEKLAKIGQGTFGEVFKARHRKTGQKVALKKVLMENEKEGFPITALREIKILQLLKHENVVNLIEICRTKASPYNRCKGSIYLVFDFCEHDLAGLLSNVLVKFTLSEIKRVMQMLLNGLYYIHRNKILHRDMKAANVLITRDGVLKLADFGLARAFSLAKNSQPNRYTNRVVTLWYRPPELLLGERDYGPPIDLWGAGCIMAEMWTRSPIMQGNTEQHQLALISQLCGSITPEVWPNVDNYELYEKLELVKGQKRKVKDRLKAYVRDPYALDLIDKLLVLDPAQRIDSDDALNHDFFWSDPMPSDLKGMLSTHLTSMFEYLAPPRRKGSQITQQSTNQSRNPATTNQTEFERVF

COc1ccc(C[C@@H]2NC(=O)[C@H]([C@@H](C)O)NC(=O)[C@@H]3[C@@H]4CCN3C(=O)[C@@H]3Cc5cn(c6ccc(F)cc56)CCCCCCN(Cc5ccc(cc5)CCNC(=O)[C@]5(C)CCCN5C2=O)C(=O)CCC(=O)N[C@@H](C)C(=O)N[C@H](CNC(=O)CCCCC[N+](C)(C)C)C(=O)N[C@@H](Cc2cccc(c2)CNC(=O)CO4)C(=O)N3)cc1 — participants with adverse event (item: nasal congestion; human; dose not given): 6.5%
CCS(=O)(=O)Nc1ccc(Oc2ccc(F)cc2F)c(-c2cn(C)c(=O)c3[nH]ccc23)c1 — treatment-emergent adverse events (fungal pneumonia leading to discontinuation; human, relapsed/refractory AML; oral, dose not given): 5%
C=CC(=O)N1CC[C@H](n2nc(C#Cc3cc(OC)cc(OC)c3)c3c(N)ncnc32)C1 — hyponatremia incidence, grade ≥3 (human patients; oral, dose not given, QD regimen, adverse drug reaction, added: lanthanum carbonate hydrate): 4.2%
COc1ccnc(C(=O)N[C@H]2COC(=O)[C@H](Cc3ccccc3)[C@@H](OC(=O)C(C)C)[C@H](C)OC2=O)c1OCOC(=O)C(C)C — DT50 (aerobic dark soil incubation; clay loam soil; 20 °C, modelling endpoint): 2.06 days
C[C@@H]1NC(=O)[C@H](CCCCNC(=O)CO/N=C/C(=O)NCCCC[C@@H]2NC(=O)[C@@H](Cc3ccccc3)NC(=O)[C@H](CC(=O)O)NC(=O)CNC(=O)[C@H](CCCNC(=N)N)NC2=O)NC(=O)CNC(=O)[C@@H]2CCCN2C(=O)[C@H](CCCCNC(=O)CO/N=C/C(=O)NCCCC[C@@H]2NC(=O)[C@@H](Cc3ccccc3)NC(=O)[C@H](CC(=O)O)NC(=O)CNC(=O)[C@H](CCCNC(=N)N)NC2=O)NC(=O)[C@H](CCCCNC(=O)[C@H](CCCCN)NC(=O)[C@H](Cc2ccccc2)NC(=O)CNC(=O)CN2CCCNCCNCCCNCC2)NC(=O)[C@H](CCCCNC(=O)CO/N=C/C(=O)NCCCC[C@@H]2NC(=O)[C@@H](Cc3ccccc3)NC(=O)[C@H](CC(=O)O)NC(=O)CNC(=O)[C@H](CCCNC(=N)N)NC2=O)NC(=O)CNC(=O)[C@@H]2CCCN2C(=O)[C@H](CCCCNC(=O)CO/N=C/C(=O)NCCCC[C@@H]2NC(=O)[C@@H](Cc3ccccc3)NC(=O)[C@H](CC(=O)O)NC(=O)CNC(=O)[C@H](CCCNC(=N)N)NC2=O)NC1=O [copper-64 labelled] — tissue uptake (normal mice, pancreas; intravenous, 0.74 MBq, 24 h post-injection): 0.47 ± 0.1 %ID/g
O=c1nc(NO)ccn1[C@@H]1O[C@H](CO)[C@@H](O)[C@H]1O — bench-top stability (rat maternal placenta dialysate; 1000 ng/mL, 6 h, room temperature, high concentration, added: molnupiravir 250 ng/mL): 96.9 ± 6.63%
Nc1nc2cc(-c3ccc4ncc(C(=O)N5CCOCC5)n4c3)ccc2o1 — discontinuation due to adverse events (human, advanced solid tumours; 100–300 mg once daily, all-cause): 17%
CO[C@H]1C[C@@H]2CC[C@@H](C)[C@@](O)(O2)C(=O)C(=O)N2CCCC[C@H]2C(=O)O[C@H]([C@H](C)C[C@@H]2CC[C@@H](OC(=O)NCCOCCOCCOCCOCCOCCOCCOCCOCCC(=O)N3CCc4cc(Cn5nc(-c6ccc7oc(N)nc7c6)c6c(N)ncnc65)ccc4C3)[C@H](OC)C2)C[C@@H](O)[C@H](C)/C=C(\C)[C@@H](O)[C@@H](OC)C(=O)[C@H](C)C[C@H](C)/C=C/C=C/C=C/1C — dose-reducing adverse events (phase 1 dose escalation, item: gastric haemorrhage; advanced solid tumour patients; intravenous, 16 mg weekly, any grade): 25%
C[C@@H]1COCCN1c1cc(C2([S@](C)(=N)=O)CC2)nc(-c2cc[nH]c3nccc2-3)n1 — discontinuation due to adverse event (patients, advanced solid tumours; oral, 20 mg twice daily, 17 days, added: carboplatin): 0 % patients
Cn1c(-c2ccc(C(N)=O)cc2F)nnc1C(C)(C)Oc1c(F)cc(Cl)cc1F — gastrointestinal disorder TEAE (human; oral, 30 mg, single ascending dose): 0%
CC(Nc1nc(N2CCN(CCN)CC2)nc2ccccc12)c1ccccc1 (stereo not shown) — maximum response (Vero-E6; CellTiter-Glo ATP; 72 h, retest 8-point duplicates; relative to: DMSO 0%, hyamine -100%, more negative, more toxic): -11.5%
Cn1nc(NS(C)(=O)=O)c2c(Cl)ccc(-n3c([C@H](Cc4cc(F)cc(F)c4)NC(=O)Cn4nc(C(F)F)c5c4C(F)(F)[C@@H]4C[C@H]54)nc4nc(OCCC(F)(F)F)ccc4c3=O)c21 — tolerability (human; oral, dose not given, single and multiple doses): not toxic
O=C(Nc1ccccc1)C1CCN(C(=O)Oc2cccnc2)CC1 — subjects with adverse event (item: reproductive and breast disorders; healthy women; oral, 100 mg, 9 days): 0%
COc1ccc([C@@H](O)c2cc(-c3ncnc4cc(N5CCOCC5)ccc34)c(F)cc2Cl)nn1 — stomatitis incidence (patients, advanced solid tumours; oral, 300 mg twice daily, treatment-emergent, added: avelumab): 4%
O=S(=O)(Nc1ccccc1)c1ccc(NC(=S)Nc2ccccc2)cc1 — blood cell fraction (item: EO%; male mouse, blood; oral, 80 mg/kg daily, 14 days): 1.12%
O=[N+]([O-])c1ccc2c(c1)S(=O)(=O)C=C2 — mean corpuscular haemoglobin (male C57BL/6 mice, blood; intraperitoneal, 20 mg/kg, day 8, group average): 15.1 pg
CC(C)(c1ccc(O)cc1)c1ccc(O)cc1 — final permeate concentration (ultrafiltration; cow milk whey; 2000 nM nominal in whole milk): 83.9 nM
C[C@]1(CO)Cc2ncn(-c3ccc(C#N)c(Cl)c3)c2C(=O)O1 — half-life at steady state (human, plasma; 10 mg once daily, fasted): 5.9 h
O=C(O)CCCOc1ccc(F)cc1-c1cc(-c2ccccc2C(F)(F)F)n(-c2ccccc2)n1 — relative organ weight (male Crl:CD(SD) rats, lungs; intravenous, 25 µg/kg, 14 d): 0.31 ± 0.01 g%
NC1(C(=O)N[C@@H](CCO)c2ccc(Cl)cc2)CCN(c2nc[nH]c3nccc2-3)CC1 — incidence of decreased appetite (metastatic CRPC patients; 400 mg b.i.d., any grade, treatment-related, added: enzalutamide 160 mg daily): 42.9%
CCCCCCCCCCCCOS(=O)(=O)O.O=C(NCCCNc1nc(Nc2cccc(NC(=O)N3CCCC3)c2)ncc1I)c1cccs1 — degradation onset temperature (thermogravimetric analysis; nitrogen 10 °C/min): ~185 °C
C[C@H]1CN(c2n[nH]c3nc(N[C@H]4CC[C@H](NS(=O)(=O)CCC(F)(F)F)CC4)ncc23)CCO1 — remaining binding (Cyclin-dependent kinase 9 (CDK9, Homo sapiens, UniProt P50750); Kinobeads competition; HEK293, K562, placenta lysate; 0.8 µM, unit not given; relative to: vehicle): 0.98
CC(=O)c1c(C)c2cnc(Nc3ccc(C4CCN(CCS(C)(=O)=O)CC4)cn3)nc2n(C2CCCC2)c1=O — k_el (human, plasma; oral, 75 mg twice daily, day 21, multiple dose, added: letrozole): 3.06e-05 s⁻¹
O=[N+]([O-])c1cc2c3c(ccc2c2ccccc12)[C@H](O)[C@@H](O)C=C3 — tumour incidence (female Sprague-Dawley rat, mammary gland; intramammary, dose not given, 32 wk, palpable mammary tumours at necropsy): 38%
CC(C)[C@@H]1NC(=O)CNC(=O)[C@H](CC(N)=O)NC(=O)[C@H](CCCNC(=N)N)NC(=O)[C@H](Cc2ccc(O)cc2)NC(=O)[C@H](C(C)C)NC(=O)[C@@H](NC(=O)[C@@H](NC(=O)[C@H](CC(N)=O)NC(=O)[C@H](Cc2c[nH]c3ccccc23)NC(=O)[C@H](C)NC(=O)[C@H](Cc2ccccc2)NC(=O)CN)C(C)C)CSSC[C@@H](C(=O)N[C@@H](Cc2cnc[nH]2)C(=O)N[C@@H](CCCNC(=N)N)C(=O)N[C@@H](CCCNC(=N)N)C(=O)N[C@@H](C)C(=O)N[C@@H](CC(N)=O)C(N)=O)NC(=O)[C@H](C(C)C)NC(=O)[C@H](CCCNC(=N)N)NC1=O — mean corpuscular volume (ICR mice, blood; intraperitoneal, 5 mg/kg, day 5): 40.5 ± 1.17 fL
O=C1Nc2cc3[nH]nc(-c4ccncc4)c3cc2CN1Cc1ccccc1 — patients with infusion reaction (CTCAE v4.03; advanced solid tumour patients; intravenous, 4.8 mg/kg): 0%
COc1cc2c(Oc3ccc4[nH]c(C)cc4c3F)ccnc2cc1OCC1(N)CC1 — grade 1 or 2 Hyperuricemia (paediatric recurrent refractory sarcoma; concentration not given, whole group): 8.8%
CN(C)CCNC(=O)c1ccc2c(c1)C1(CCN(CC3CC3)C1)CN2Cc1ccccc1 (stereo not shown) — maximum response (Vero-E6; CellTiter-Glo ATP; 72 h, retest 8-point duplicates; relative to: DMSO 0%, hyamine -100%, more negative, more toxic): -7.36%
CCC[C@@](N)(CO)CCc1ccc(OCCCCCC(C)C)cc1 — Cmax (dog, male hounds, plasma; oral capsule, 15 mg/kg, geometric mean): 428 nM
c1ccc2c(c1)ccc1c3ccccc3ccc21 — metabolism rate (pooled human liver microsomes; 0.25 µM, pH 7.4): 9.63 pmol/min/mg
C=CC(=O)Nc1cc(Nc2nccc(Nc3cc(Cl)c(F)cc3C(C)(C)O)n2)c(OC)cc1N1CC[C@@H](N(C)C)C1 — patients with adverse event Diarrhoea (human; oral, dose not given, phase I clinical): 56.9%
CN1CC[C@@H](c2c(O)cc(O)c3c(=O)cc(-c4ccc(C(F)(F)F)cc4Cl)oc23)[C@@H]1CO — patients with adverse event (item: urinary incontinence; B-cell malignancies or AML; oral, 50 mg, grade 3 to 4, continuous dosing): 0%
c1csc(CNc2cc[nH]n2)c1 — micronucleated PCE per 1000 PCE (micronucleus; CD-1 mouse Hsd:ICR(CD-1), female, bone marrow; oral, 1000 mg/kg/day, 3 days): 0.4
CC1(C)[C@H](C(=O)OCc2cccc(Oc3ccccc3)c2)[C@@H]1C=C(Cl)Cl — enzyme contribution to clearance (item: CYP2C19; human, age 1 year, recombinant human CYP2C19; 0.1 µM): 3.11%

For quick reference, copied from above:
O=[N+]([O-])c1cc2c3c(ccc2c2ccccc12)[C@H](O)[C@@H](O)C=C3 — tumour incidence (female Sprague-Dawley rat, mammary gland; intramammary, dose not given, 32 wk, palpable mammary tumours at necropsy): 38%
CCS(=O)(=O)Nc1ccc(Oc2ccc(F)cc2F)c(-c2cn(C)c(=O)c3[nH]ccc23)c1 — treatment-emergent adverse events (fungal pneumonia leading to discontinuation; human, relapsed/refractory AML; oral, dose not given): 5%
C[C@@H]1NC(=O)[C@H](CCCCNC(=O)CO/N=C/C(=O)NCCCC[C@@H]2NC(=O)[C@@H](Cc3ccccc3)NC(=O)[C@H](CC(=O)O)NC(=O)CNC(=O)[C@H](CCCNC(=N)N)NC2=O)NC(=O)CNC(=O)[C@@H]2CCCN2C(=O)[C@H](CCCCNC(=O)CO/N=C/C(=O)NCCCC[C@@H]2NC(=O)[C@@H](Cc3ccccc3)NC(=O)[C@H](CC(=O)O)NC(=O)CNC(=O)[C@H](CCCNC(=N)N)NC2=O)NC(=O)[C@H](CCCCNC(=O)[C@H](CCCCN)NC(=O)[C@H](Cc2ccccc2)NC(=O)CNC(=O)CN2CCCNCCNCCCNCC2)NC(=O)[C@H](CCCCNC(=O)CO/N=C/C(=O)NCCCC[C@@H]2NC(=O)[C@@H](Cc3ccccc3)NC(=O)[C@H](CC(=O)O)NC(=O)CNC(=O)[C@H](CCCNC(=N)N)NC2=O)NC(=O)CNC(=O)[C@@H]2CCCN2C(=O)[C@H](CCCCNC(=O)CO/N=C/C(=O)NCCCC[C@@H]2NC(=O)[C@@H](Cc3ccccc3)NC(=O)[C@H](CC(=O)O)NC(=O)CNC(=O)[C@H](CCCNC(=N)N)NC2=O)NC1=O [copper-64 labelled] — tissue uptake (normal mice, pancreas; intravenous, 0.74 MBq, 24 h post-injection): 0.47 ± 0.1 %ID/g
C=CC(=O)N1CC[C@H](n2nc(C#Cc3cc(OC)cc(OC)c3)c3c(N)ncnc32)C1 — hyponatremia incidence, grade ≥3 (human patients; oral, dose not given, QD regimen, adverse drug reaction, added: lanthanum carbonate hydrate): 4.2%
Nc1nc2cc(-c3ccc4ncc(C(=O)N5CCOCC5)n4c3)ccc2o1 — discontinuation due to adverse events (human, advanced solid tumours; 100–300 mg once daily, all-cause): 17%
Cn1nc(NS(C)(=O)=O)c2c(Cl)ccc(-n3c([C@H](Cc4cc(F)cc(F)c4)NC(=O)Cn4nc(C(F)F)c5c4C(F)(F)[C@@H]4C[C@H]54)nc4nc(OCCC(F)(F)F)ccc4c3=O)c21 — tolerability (human; oral, dose not given, single and multiple doses): not toxic
